Results from different studies.
Protocols differ between the studies behind these lines. “And” joins repeats or separate records; there may be more than shown. ± gives the spread as reported.
Sequence of UniProt Q12809 (whole entry, looked up): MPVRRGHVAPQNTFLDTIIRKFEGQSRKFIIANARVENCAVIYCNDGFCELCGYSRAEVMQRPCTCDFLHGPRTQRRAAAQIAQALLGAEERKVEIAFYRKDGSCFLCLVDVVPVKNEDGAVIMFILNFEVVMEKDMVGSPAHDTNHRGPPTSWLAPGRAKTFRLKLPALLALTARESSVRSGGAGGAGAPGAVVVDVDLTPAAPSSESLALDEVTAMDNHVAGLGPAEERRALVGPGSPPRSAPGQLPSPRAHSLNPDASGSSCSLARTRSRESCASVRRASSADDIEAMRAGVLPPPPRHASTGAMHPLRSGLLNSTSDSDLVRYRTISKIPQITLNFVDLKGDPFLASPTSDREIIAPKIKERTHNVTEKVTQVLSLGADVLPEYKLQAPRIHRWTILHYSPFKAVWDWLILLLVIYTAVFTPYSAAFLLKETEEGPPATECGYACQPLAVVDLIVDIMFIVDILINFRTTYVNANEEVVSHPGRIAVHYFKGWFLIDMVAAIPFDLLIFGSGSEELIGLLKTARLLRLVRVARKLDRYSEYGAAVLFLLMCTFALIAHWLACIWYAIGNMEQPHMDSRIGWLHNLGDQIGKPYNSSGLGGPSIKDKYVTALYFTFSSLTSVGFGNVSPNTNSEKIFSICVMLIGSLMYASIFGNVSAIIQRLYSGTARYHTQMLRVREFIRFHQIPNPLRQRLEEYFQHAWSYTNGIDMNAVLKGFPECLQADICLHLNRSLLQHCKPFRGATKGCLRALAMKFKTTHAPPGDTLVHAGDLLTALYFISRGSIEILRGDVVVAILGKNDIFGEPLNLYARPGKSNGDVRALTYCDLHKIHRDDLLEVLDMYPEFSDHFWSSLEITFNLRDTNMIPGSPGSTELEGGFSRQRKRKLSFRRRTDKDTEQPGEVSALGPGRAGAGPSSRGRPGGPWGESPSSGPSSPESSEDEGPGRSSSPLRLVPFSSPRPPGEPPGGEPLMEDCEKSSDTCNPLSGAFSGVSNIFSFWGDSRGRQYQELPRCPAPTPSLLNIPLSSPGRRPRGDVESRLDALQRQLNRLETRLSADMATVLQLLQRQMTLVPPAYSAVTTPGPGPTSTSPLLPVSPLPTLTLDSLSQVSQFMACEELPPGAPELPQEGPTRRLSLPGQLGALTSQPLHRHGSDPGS

| SMILES | target or system | test | test system | setting | scale | measurement | result |
| --- | --- | --- | --- | --- | --- | --- | --- |
| CCC(CC)COC(=O)[C@H](C)N[P@](=O)(OC[C@H]1O[C@@](C#N)(c2ccc3c(N)ncnn23)[C@H](O)[C@@H]1O)Oc1ccccc1 | Vero | cell morphology |  | 5 (unit not given) |  | minimum cytotoxic concentration | 80 µM |
| CCC(CC)COC(=O)[C@H](C)N[P@](=O)(OC[C@H]1O[C@@](C#N)(c2ccc3c(N)ncnn23)[C@H](O)[C@@H]1O)Oc1ccccc1 | Vero | cell morphology, microscopy |  | 5 (unit not given) |  | minimum cytotoxic concentration | > 40 µM |
| O=C[C@H](C[C@@H]1CCNC1=O)NC(=O)[C@H](Cc1cccc(F)c1)NC(=O)c1cc2ccccc2[nH]1 | A549 | cell growth or viability, MTT |  | 24 h |  | CC50 | > 100 µM |
| CC(=O)c1c(O)c(C)c(O)c(Cc2c(O)c3c(c(C(=O)/C=C/c4ccccc4)c2O)OC(C)(C)C=C3)c1O | Voltage-gated inwardly rectifying potassium channel KCNH2 (KCNH2, Homo sapiens, UniProt Q12809) | ion current, whole-cell patch clamp | HEK293 expressing hERG1 | 4 µM, at -120 mV |  | fast deactivation component share | 68.9 ± 2.6% |
| CC[C@H](C)[C@H](NC(=O)[C@H](CC(C)C)NC(=O)[C@H](Cc1c[nH]c2ccccc12)NC(=O)[C@H](CCC(N)=O)NC(=O)[C@@H](NC(=O)[C@H](Cc1ccccc1)NC(=O)[C@H](C)NC(=O)[C@H](CCCCNC(=O)COCCOCCNC(=O)COCCOCCNC(=O)CC[C@H](NC(=O)CCCCCCCCCCCCCCCCCCC(=O)O)C(=O)O)NC(=O)[C@H](CCC(N)=O)NC(=O)[C@H](C)NC(=O)[C@@H](NC(=O)[C@H](CCCCN)NC(=O)[C@H](CC(=O)O)NC(=O)[C@H](CC(C)C)NC(=O)C(C)(C)NC(=O)[C@@H](NC(=O)[C@H](CO)NC(=O)[C@H](Cc1ccc(O)cc1)NC(=O)[C@H](CC(=O)O)NC(=O)[C@H](CO)NC(=O)[C@@H](NC(=O)[C@H](Cc1ccccc1)NC(=O)[C@@H](NC(=O)CNC(=O)[C@H](CCC(=O)O)NC(=O)C(C)(C)NC(=O)[C@@H](N)Cc1ccc(O)cc1)[C@@H](C)O)[C@@H](C)O)[C@@H](C)CC)[C@@H](C)CC)C(C)C)C(=O)N[C@@H](C)C(=O)NCC(=O)NCC(=O)N1CCC[C@H]1C(=O)N[C@@H](CO)C(=O)N[C@@H](CO)C(=O)NCC(=O)N[C@@H](C)C(=O)N1CCC[C@H]1C(=O)N1CCC[C@H]1C(=O)N1CCC[C@H]1C(=O)N[C@@H](CO)C(N)=O |  |  | human, plasma | subcutaneous, 15.0 mg once weekly, week 23, multiple doses |  | AUC(0-168 h) | 357 µg·h/mL |
| CCc1c(C(=O)C(N)=O)c2c(OCC(=O)O)cccc2n1Cc1ccccc1 | C2C12 |  |  | 100 µM, without venom, unit not given | baseline: cells alone (=100) | viability | 97 and 95 and 99.1 |
| NCCOc1ccc(Cl)cc1C(=O)NCC(=O)Nc1ccc([N+](=O)[O-])cc1Cl | Vero E6 |  |  | 48 h |  | CC50 | 53.1 µM |
| CC[C@H](C)[C@H](NC(=O)[C@H](CC(C)C)NC(=O)[C@H](Cc1c[nH]c2ccccc12)NC(=O)[C@H](CCC(N)=O)NC(=O)[C@@H](NC(=O)[C@H](Cc1ccccc1)NC(=O)[C@H](C)NC(=O)[C@H](CCCCNC(=O)COCCOCCNC(=O)COCCOCCNC(=O)CC[C@H](NC(=O)CCCCCCCCCCCCCCCCCCC(=O)O)C(=O)O)NC(=O)[C@H](CCC(N)=O)NC(=O)[C@H](C)NC(=O)[C@@H](NC(=O)[C@H](CCCCN)NC(=O)[C@H](CC(=O)O)NC(=O)[C@H](CC(C)C)NC(=O)C(C)(C)NC(=O)[C@@H](NC(=O)[C@H](CO)NC(=O)[C@H](Cc1ccc(O)cc1)NC(=O)[C@H](CC(=O)O)NC(=O)[C@H](CO)NC(=O)[C@@H](NC(=O)[C@H](Cc1ccccc1)NC(=O)[C@@H](NC(=O)CNC(=O)[C@H](CCC(=O)O)NC(=O)C(C)(C)NC(=O)[C@@H](N)Cc1ccc(O)cc1)[C@@H](C)O)[C@@H](C)O)[C@@H](C)CC)[C@@H](C)CC)C(C)C)C(=O)N[C@@H](C)C(=O)NCC(=O)NCC(=O)N1CCC[C@H]1C(=O)N[C@@H](CO)C(=O)N[C@@H](CO)C(=O)NCC(=O)N[C@@H](C)C(=O)N1CCC[C@H]1C(=O)N1CCC[C@H]1C(=O)N1CCC[C@H]1C(=O)N[C@@H](CO)C(N)=O |  | refers to: anti-drug antibodies | healthy human subjects | 5/5/8/10 mg escalating, titer ≥1:20 |  | subjects with treatment-induced ADA | 14.3% |
| CC(C)(C)OC(=O)NCCOc1ccc(Cl)cc1C(=O)NCC(=O)Nc1ccc([N+](=O)[O-])cc1Cl | Vero E6 |  |  | 48 h |  | CC50 | 342 µM |
| CC(C)N1CCN(c2ccc(OCC3COC(Cn4cncn4)(c4ccc(Cl)cc4Cl)O3)cc2)CC1 (stereo not drawn) | J774A.1 | alamarBlue |  |  |  | CC50 | 84.6 ± 15.6 µM |
| CCC(CC)COC(=O)[C@H](C)N[P@](=O)(OC[C@H]1O[C@@](C#N)(c2ccc3c(N)ncnn23)[C@H](O)[C@@H]1O)Oc1ccccc1 | Vero |  |  | 24 h |  | CC50 | > 50 µM |
| CCCN1CCC=C(c2cc(-c3ccc(C)cc3)no2)C1 | J774A.1 | alamarBlue |  |  |  | CC50 | 48.8 ± 12.5 µM |
| Cn1cnc(Cn2c(=O)[nH]/c(=N\c3cc4cn(C)nc4cc3Cl)n(Cc3cc(F)c(F)cc3F)c2=O)n1 |  |  | human, all renal function groups | oral, 375 mg, treatment-related decreased GFR, Severe severity |  | patients with adverse event | 0% |
| Nc1ncnc2c([C@@H]3N[C@H](CO)[C@@H](O)[C@H]3O)c[nH]c12 | Western equine encephalitis virus | viral replication, inhibitor | Vero 76 | 0.3 µM |  | inhibition | 0% |
| CC(C)(C)[C@H](NC(=O)C(F)(F)F)C(=O)N1C[C@H]2[C@@H]([C@H]1C(=O)N[C@H](C#N)C[C@@H]1CCNC1=O)C2(C)C | Caco-2 |  |  | 48 h |  | CC50 | 213 µM |

Excerpt of the above:
| SMILES | target or system | test | test system | setting | scale | measurement | result |
| --- | --- | --- | --- | --- | --- | --- | --- |
| CCCN1CCC=C(c2cc(-c3ccc(C)cc3)no2)C1 | J774A.1 | alamarBlue |  |  |  | CC50 | 48.8 ± 12.5 µM |
